Published values of several laboratories.
Each line is one published result; not all experiments were run side by side.
Cell line: HEK293

SMILES	read-out	technique	tested at	time	viability
CC[C@H](C)[C@@H](C(=O)N[C@@H](Cc1ccc(O)cc1)C(=O)N1CCC[C@H]1C(=O)N[C@@H](Cc1ccccc1)C(=O)O)n1cc(C(Cc2ccc(O)cc2)NC(=O)[C@@H](NC(=O)[C@H](CCCNC(=N)N)NC(=O)[C@@H](N)CC(=O)O)C(C)C)nn1 (stereo partly drawn)	cell growth or viability	MTT	12.5 µM	24 h	97.1%
O=C(CN1C(=O)CSC1=O)Oc1ccc(/C=N/NC(=O)c2ccncc2)cc1Br	cell growth or viability	MTT	50 µg/mL	24 h	> 70%
N=C(N)NCCC[C@@H]1NC(=O)[C@H](CCCNC(=N)N)NC(=O)[C@@H](Cc2ccc3ccccc3c2)NC(=O)[C@H](Cc2c[nH]c3ccccc23)NC(=O)[C@@H](Cc2ccc3ccccc3c2)NC(=O)[C@@H](CCCNC(=N)N)NC(=O)[C@@H](CCCNC(=N)N)NC1=O	cell growth or viability	MTS	200 µg/mL	24 h	67 to 72%
Cc1ccc(-n2cc(CSc3nc4ccccc4n3Cc3cn(-c4ccc(C)cc4)nn3)nn2)cc1	–	MTT	62.5 ppm	–	29.4%
CCOc1cc(/C=N/NC(=O)c2ccncc2)ccc1OC(=O)CN1C(=O)CSC1=O	cell growth or viability	MTT	30 µg/mL	24 h	> 70%
N=C(N)NCCC[C@@H]1NC(=O)[C@H](CCCNC(=N)N)NC(=O)[C@@H](CCCNC(=N)N)NC(=O)[C@@H](CCCNC(=N)N)NC(=O)[C@@H](C(c2ccccc2)c2ccccc2)NC(=O)[C@H](Cc2c[nH]c3ccccc23)NC(=O)[C@@H](C(c2ccccc2)c2ccccc2)NC1=O	cell growth or viability	MTS	200 µg/mL	24 h	72 to 77%
O=C(CN1C(=O)CSC1=O)Oc1ccc(/C=N/NC(=O)c2ccccn2)cc1Br	cell growth or viability	MTT	40 µg/mL	24 h	> 70%
c1cc2nc(c1)-c1cccc(n1)CCCc1ccc(cc1)OCCCCCCOc1ccc(cc1)CCC2	cell growth or viability	MTT	25 µM	24 h	84.8%
CN1CCCNC(=O)c2cccc(c2)C(=O)NCCCN(C)CCCNc2cccc3c2C(=O)c2cccc(c2C3=O)NCCC1	cell growth or viability	CCK-8	1 nM	48 h	101%

Excerpt of the above:
SMILES	read-out	technique	tested at	time	viability
Cc1ccc(-n2cc(CSc3nc4ccccc4n3Cc3cn(-c4ccc(C)cc4)nn3)nn2)cc1	–	MTT	62.5 ppm	–	29.4%
